Results collected from several papers.
Lines come from different studies, so protocols differ. Changes are numbered by the printed parent chain. ± gives the spread as reported.
P1: NCAM1 residues 745-753 (Mus musculus); IAVNLCGKA; partner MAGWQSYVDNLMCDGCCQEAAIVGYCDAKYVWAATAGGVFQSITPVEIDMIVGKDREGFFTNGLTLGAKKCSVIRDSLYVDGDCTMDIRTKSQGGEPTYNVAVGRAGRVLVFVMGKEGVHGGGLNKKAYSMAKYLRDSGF
Chain of UniProt Q8K3Y3 (whole entry, looked up): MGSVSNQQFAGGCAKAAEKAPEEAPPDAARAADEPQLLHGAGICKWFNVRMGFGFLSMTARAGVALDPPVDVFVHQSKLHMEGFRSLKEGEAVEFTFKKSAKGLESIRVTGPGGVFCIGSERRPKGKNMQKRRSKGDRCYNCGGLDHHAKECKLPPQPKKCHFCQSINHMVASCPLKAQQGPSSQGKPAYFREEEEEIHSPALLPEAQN
Chain of UniProt P50534 (whole entry, unmodified, looked up): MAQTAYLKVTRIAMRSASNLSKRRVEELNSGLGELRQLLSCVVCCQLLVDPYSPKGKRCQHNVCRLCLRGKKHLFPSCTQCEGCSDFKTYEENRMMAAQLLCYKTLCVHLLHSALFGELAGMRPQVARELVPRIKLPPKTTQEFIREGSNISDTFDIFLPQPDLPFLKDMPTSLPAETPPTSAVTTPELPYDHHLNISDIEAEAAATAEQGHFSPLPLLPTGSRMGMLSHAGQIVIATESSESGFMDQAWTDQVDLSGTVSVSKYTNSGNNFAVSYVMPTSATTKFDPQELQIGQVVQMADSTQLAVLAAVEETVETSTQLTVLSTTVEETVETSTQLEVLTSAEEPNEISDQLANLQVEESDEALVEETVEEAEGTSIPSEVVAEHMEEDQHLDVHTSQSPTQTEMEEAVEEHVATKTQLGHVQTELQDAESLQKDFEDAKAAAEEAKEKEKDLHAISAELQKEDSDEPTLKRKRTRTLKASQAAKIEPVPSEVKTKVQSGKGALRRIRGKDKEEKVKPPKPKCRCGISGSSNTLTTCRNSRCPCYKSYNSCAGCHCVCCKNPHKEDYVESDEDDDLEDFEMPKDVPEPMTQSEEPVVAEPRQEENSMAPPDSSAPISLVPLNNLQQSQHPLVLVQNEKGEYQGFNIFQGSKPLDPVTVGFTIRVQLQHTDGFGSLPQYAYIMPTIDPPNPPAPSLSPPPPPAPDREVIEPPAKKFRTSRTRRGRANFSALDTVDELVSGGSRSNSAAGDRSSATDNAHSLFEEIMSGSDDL
Chain of UniProt Q97ZE3 (whole entry, looked up): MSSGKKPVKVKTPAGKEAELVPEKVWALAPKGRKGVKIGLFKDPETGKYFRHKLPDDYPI
Chain of UniProt Q9NWB1 (whole entry, unmodified, looked up): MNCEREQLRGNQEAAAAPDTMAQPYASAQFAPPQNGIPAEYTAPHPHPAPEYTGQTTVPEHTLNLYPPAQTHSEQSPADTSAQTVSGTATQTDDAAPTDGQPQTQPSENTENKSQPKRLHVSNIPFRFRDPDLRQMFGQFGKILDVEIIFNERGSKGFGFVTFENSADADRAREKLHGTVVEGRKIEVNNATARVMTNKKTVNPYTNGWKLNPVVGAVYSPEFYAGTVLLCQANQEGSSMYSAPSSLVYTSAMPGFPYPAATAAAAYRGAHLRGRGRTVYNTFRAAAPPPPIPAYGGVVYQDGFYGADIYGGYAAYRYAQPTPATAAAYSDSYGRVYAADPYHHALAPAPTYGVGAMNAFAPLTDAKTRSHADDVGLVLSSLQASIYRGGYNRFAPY
Chain of UniProt P35208 (whole entry, looked up): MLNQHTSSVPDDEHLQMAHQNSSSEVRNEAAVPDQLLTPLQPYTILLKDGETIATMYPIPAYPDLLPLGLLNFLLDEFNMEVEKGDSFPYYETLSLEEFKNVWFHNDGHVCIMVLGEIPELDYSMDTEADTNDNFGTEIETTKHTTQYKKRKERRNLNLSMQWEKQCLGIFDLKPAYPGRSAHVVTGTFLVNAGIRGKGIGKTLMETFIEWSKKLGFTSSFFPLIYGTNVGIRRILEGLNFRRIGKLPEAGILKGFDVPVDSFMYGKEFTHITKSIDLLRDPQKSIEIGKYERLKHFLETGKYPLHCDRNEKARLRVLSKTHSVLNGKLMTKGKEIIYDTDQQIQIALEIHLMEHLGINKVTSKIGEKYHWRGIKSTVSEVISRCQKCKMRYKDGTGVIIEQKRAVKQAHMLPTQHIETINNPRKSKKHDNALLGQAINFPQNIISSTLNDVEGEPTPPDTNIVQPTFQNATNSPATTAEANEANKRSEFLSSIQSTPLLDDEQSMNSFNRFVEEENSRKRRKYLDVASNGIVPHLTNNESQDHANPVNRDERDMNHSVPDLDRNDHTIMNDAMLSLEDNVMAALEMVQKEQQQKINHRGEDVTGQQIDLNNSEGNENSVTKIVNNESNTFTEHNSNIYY
Chain of UniProt Q6PI48 (whole entry, looked up): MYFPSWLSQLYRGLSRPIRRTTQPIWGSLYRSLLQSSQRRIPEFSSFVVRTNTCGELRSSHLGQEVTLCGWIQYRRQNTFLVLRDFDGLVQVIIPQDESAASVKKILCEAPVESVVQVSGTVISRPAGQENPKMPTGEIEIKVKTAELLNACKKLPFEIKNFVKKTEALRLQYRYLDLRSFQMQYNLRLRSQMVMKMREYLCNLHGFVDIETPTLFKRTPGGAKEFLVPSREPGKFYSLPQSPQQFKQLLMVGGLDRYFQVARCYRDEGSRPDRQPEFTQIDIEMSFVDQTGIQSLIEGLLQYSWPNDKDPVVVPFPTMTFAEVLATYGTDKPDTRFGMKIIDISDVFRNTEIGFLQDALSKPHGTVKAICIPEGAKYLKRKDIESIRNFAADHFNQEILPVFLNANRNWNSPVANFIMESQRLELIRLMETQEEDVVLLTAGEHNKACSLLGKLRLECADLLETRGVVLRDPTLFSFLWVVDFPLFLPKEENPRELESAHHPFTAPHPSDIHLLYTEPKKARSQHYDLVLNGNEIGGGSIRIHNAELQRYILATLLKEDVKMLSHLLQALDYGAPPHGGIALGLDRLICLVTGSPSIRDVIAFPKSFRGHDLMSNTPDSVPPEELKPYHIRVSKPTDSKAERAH
Chain of UniProt Q15717 (whole entry, looked up): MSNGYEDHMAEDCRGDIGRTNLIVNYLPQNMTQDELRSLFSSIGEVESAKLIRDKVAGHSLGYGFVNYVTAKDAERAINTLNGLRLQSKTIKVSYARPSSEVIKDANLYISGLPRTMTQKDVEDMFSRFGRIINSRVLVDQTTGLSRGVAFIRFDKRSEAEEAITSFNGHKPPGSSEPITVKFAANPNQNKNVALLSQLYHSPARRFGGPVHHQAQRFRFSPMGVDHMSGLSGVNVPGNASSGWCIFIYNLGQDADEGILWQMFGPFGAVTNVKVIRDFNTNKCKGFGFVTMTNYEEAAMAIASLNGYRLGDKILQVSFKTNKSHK
Chain of UniProt Q9QX72 (whole entry, looked up): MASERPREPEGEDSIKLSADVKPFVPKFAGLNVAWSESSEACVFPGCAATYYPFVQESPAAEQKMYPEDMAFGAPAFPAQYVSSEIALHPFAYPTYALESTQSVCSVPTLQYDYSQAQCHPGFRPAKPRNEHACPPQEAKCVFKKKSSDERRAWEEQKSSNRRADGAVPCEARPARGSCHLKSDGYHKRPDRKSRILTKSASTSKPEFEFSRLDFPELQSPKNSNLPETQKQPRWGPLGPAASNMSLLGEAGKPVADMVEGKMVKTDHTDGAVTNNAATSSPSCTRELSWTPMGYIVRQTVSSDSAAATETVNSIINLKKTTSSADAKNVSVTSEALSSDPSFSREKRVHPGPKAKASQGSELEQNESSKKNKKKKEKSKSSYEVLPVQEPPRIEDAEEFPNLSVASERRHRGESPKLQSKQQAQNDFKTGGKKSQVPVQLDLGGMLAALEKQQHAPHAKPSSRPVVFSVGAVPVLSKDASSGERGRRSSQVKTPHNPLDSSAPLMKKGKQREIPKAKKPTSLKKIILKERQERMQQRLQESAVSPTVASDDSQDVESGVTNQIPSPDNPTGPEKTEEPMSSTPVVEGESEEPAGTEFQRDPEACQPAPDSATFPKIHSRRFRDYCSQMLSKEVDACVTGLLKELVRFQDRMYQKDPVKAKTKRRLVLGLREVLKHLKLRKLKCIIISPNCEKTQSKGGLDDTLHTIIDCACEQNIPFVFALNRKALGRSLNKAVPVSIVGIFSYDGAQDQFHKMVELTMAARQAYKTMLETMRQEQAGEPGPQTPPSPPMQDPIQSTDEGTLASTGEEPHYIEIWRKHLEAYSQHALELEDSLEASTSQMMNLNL
Chain of UniProt P20366 (whole entry, looked up): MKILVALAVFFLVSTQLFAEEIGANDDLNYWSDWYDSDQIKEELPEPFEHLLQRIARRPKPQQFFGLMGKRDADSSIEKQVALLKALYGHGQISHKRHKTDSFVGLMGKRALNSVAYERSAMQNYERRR
Chain of UniProt Q9UIF7 (whole entry, unmodified, looked up): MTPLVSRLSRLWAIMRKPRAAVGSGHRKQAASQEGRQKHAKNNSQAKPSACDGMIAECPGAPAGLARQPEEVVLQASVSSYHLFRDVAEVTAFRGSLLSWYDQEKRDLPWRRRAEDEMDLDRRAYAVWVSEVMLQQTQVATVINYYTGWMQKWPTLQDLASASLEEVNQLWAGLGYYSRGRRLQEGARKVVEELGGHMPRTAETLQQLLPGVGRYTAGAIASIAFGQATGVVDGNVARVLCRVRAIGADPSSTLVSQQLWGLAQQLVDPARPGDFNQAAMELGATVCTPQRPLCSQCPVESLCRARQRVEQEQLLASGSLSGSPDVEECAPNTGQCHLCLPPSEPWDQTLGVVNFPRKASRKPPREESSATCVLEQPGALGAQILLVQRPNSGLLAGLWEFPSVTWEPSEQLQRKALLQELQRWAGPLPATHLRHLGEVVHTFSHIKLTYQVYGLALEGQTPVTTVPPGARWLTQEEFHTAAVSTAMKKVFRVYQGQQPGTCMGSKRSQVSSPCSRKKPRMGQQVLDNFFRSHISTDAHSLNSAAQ

`GATCCCCCAATGCTTCGTTTCGTATCACACACCCCAAAGCCTTCTGCTTTGAATGCTGCC (dsDNA; 60 bp duplex)` has a Kd of 113 nM (creN7 1-60 (Saccharolobus solfataricus, UniProt Q97ZE3); EMSA; double-stranded DNA, one strand shown; apparent).
`UAGCUUAUCAGACUGAUGUUGACUGUUGCAUGUCAUGGCAACACCAGUCGAUGGGCUGU (structured RNA)` gave a Kd of 156 ± 22 nM (RBFOX1 109-208 R118D/E147R/N151S/E152T (Homo sapiens, UniProt Q9NWB1); ITC; folded RNA).
With `CGGAAUCAGUGAAUGCUUAUACAUCCG (ssRNA; single strand, 2'-F pyrimidines, 2'-OMe purines)` the Kd was 0.016 ± 0.003 nM (VEGFA residues 27-191 (Homo sapiens); ELONA; modified nucleic acid).
With `CCUGCCAGCCGCCCUGGCCCUGGUCACUGCAUGAUCCGCUCUGGUCAAACCCUUCCAGGCCAGCCAGAGUGGGGAUGGUCUGUGACCUGCUGGGAAGGCAGGC (structured RNA (human); stem-loop, kink-turn)` the Kd was 8 nM (Secisbp2 517-777 (Rattus norvegicus, UniProt Q9QX72); EMSA; apparent, with: tRNA competitor).
`GCAGAUUGACGGUCUAUGAUACCACCCGGUACAGGAGAUAUCUGCA (structured RNA)` gave a Kd of 9 ± 2 nM (Lin28a 119-180 (Mus musculus, UniProt Q8K3Y3); EMSA; folded RNA).
With `TGTGTTAGTTGGGGGGTGACTGTTAAAAGTGCATACCGCCAAAAGATAAAA (dsDNA)` the Kd was 6.33 nM (POLRMT/TFB2M 43-1230; 21-396 (Homo sapiens); fluorescence anisotropy; double-stranded DNA, one strand shown; with: ATP 1 mM).
For `GCTGAGCTTCTGGTGAAGCTCAGCTCGCGGCAGCTGGTGCTGCCGCGA (dsDNA; dumbbell, central nick, 5' phosphate)`, the Kd was 37 nM (PARP2 full length 1-570 (Homo sapiens); fluorescence polarization; folded DNA).
For `GCAGAUUGAGGGUCUAUGAUACCACCCGGUACAGGAGAUAUCUGCA (structured RNA)`, the Kd was 0.13 ± 0.02 nM (Lin28a 1-209 (Mus musculus, UniProt Q8K3Y3); EMSA; folded RNA; Hill fit).
For `DNA 1 GTCGTGGACTAGGCAAAGAACTTATAGAGCCACTTGAGCACACAGAGG / DNA 2 CTAGTCCACGACTTTTTTTT (dsDNA; 8-oxoG opposite A, three-strand assembly)`, the Kd was 8.86 nM (MUTYH full length assumed Q335H (Homo sapiens, UniProt Q9UIF7); SPR; double-stranded DNA).
With `P1 N4Q L5A` the signal was 0.066 OD (PFN2; ELISA; 1.6 µM, read off a plot; higher = more binding).
`TGCGGCCATCTCTTTCGTTTTGATGTTTCT (dsDNA)` has a Kd of 116 ± 22 nM (msl-2 1-773 (Drosophila melanogaster, UniProt P50534); EMSA; double-stranded DNA, one strand shown).
`GGCGCAGGUGGGUAAAGGGGUGUGAUCGAGGGUCGAGAGGCGCC (L-RNA; mirror-image, 44 nt)` gave a Kd of 40 nM (substance P residues 58-68 (UniProt P20366); ITC; 37 °C).
For `GCAGAUUGAGGGUCUAUGAUACCAACCGGUACAGGAGAUAUCUGCA (structured RNA)`, the Kd was 2.1 ± 0.5 nM (Lin28a 119-180 (Mus musculus, UniProt Q8K3Y3); EMSA; folded RNA).
For `GCTGAGCTTCTGGTGAAGCTCAGCTCGCGGCAGCTGGTGCTGCCGCG (dsDNA; 5' phosphate)`, the Kd was 88 nM (PARP2 full length 1-570 (Homo sapiens); fluorescence polarization; folded DNA).
With `CATTAGCGCTGTTCCAAAATTTTCGCCTCACTGTGCGAAGCTATTGGAATGGAGTGTATT (dsDNA)` the Kd was 17 ± 2 nM (SPT10 1-396 (Saccharomyces cerevisiae, UniProt P35208); EMSA; double-stranded DNA, one strand shown).
For `P1 L5A C6S`, the signal was 0.052 OD (PFN2; ELISA; 3.1 µM, read off a plot; higher = more binding).
For `GGGACGCGUGGUACCAGGCCGAUCUAUGGACGCUAUAGGCACACCGGAUACUUUAACGAUUGGCUAAGCUUCCGCGGGGAUC (structured RNA; stem-loops, bulges, tri-bridged)`, the Kd was 1570 nM (ELAVL1 full length assumed (Homo sapiens, UniProt Q15717); SPR; folded RNA).
With `GCAGGCUGAGGUAGUAGUUUGUGCAGACGAAAGUCUGCACAGGCCACUGCCUUGCCAGC (structured RNA)` the Kd was 9 ± 3 nM (Lin28a 1-209 (Mus musculus, UniProt Q8K3Y3); EMSA; folded RNA).
`GGAGCGGUAGUUCAGUCGGUUAGAAUACCUGCCUGUCACGCAGGGGGUCGCGGGUUCGAGUCCCGUCCGUUCCGCCA (tRNA (Escherichia coli); cloverleaf, unmodified)` has a Kd of 240 ± 10 nM (DARS2 41-645 (Homo sapiens, UniProt Q6PI48); ITC; folded RNA).
`GCAGAUUGAGAGUCUAUGAUACCACCCGGUACAGGAGAUAUCUGCA (structured RNA)` gave a Kd of 3 ± 1 nM (Lin28a 119-180 (Mus musculus, UniProt Q8K3Y3); EMSA; folded RNA).
`ATATGAGC (dsDNA)` has a Kd of 55100 nM (msl-2 520-570 C560G (Drosophila melanogaster, UniProt P50534); NMR titration; double-stranded DNA, one strand shown; apparent).
`GCAGAUUGAGGGUCUAUGCUACCACCCGGUACAAAAGAUAUCUGCA (structured RNA)` has a Kd of 8 ± 2 nM (Lin28a 119-180 (Mus musculus, UniProt Q8K3Y3); EMSA; folded RNA).
With `GTGTGGGTGTG (ssDNA)` the Kd was 140 ± 33 nM (CDC13 1-924 R635A (Saccharomyces cerevisiae, UniProt P32797); filter binding; single-stranded DNA; KCl 750 mM).

For quick reference, copied from above:
With `P1 N4Q L5A` the signal was 0.066 OD (PFN2; ELISA; 1.6 µM, read off a plot; higher = more binding).
For `GCAGAUUGAGGGUCUAUGAUACCACCCGGUACAGGAGAUAUCUGCA (structured RNA)`, the Kd was 0.13 ± 0.02 nM (Lin28a 1-209 (Mus musculus, UniProt Q8K3Y3); EMSA; folded RNA; Hill fit).
`GCAGAUUGACGGUCUAUGAUACCACCCGGUACAGGAGAUAUCUGCA (structured RNA)` gave a Kd of 9 ± 2 nM (Lin28a 119-180 (Mus musculus, UniProt Q8K3Y3); EMSA; folded RNA).
